# Results from different studies.
# Compare with care: the assays were run in different laboratories. ± gives the spread as reported.
# PRT1: E3 ubiquitin-protein ligase PRT1 (PRT1, Arabidopsis thaliana, UniProt Q8LBL5)
# UniProt Q8LBL5, sequence (whole entry, looked up): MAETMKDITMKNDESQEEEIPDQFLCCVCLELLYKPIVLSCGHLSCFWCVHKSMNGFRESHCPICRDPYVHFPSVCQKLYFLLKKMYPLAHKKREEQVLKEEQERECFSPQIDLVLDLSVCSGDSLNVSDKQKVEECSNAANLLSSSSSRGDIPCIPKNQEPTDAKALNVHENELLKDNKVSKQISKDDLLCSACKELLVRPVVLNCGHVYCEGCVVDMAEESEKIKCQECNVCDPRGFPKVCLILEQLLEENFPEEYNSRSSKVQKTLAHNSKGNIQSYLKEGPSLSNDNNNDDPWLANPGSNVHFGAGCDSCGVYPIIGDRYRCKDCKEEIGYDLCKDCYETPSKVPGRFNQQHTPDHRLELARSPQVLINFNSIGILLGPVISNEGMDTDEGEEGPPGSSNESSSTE
# YES1 SH2 domain: Tyrosine-protein kinase Yes, SH2 domain (YES1, Homo sapiens, UniProt P07947)
# UniProt P07947, sequence (whole entry, looked up): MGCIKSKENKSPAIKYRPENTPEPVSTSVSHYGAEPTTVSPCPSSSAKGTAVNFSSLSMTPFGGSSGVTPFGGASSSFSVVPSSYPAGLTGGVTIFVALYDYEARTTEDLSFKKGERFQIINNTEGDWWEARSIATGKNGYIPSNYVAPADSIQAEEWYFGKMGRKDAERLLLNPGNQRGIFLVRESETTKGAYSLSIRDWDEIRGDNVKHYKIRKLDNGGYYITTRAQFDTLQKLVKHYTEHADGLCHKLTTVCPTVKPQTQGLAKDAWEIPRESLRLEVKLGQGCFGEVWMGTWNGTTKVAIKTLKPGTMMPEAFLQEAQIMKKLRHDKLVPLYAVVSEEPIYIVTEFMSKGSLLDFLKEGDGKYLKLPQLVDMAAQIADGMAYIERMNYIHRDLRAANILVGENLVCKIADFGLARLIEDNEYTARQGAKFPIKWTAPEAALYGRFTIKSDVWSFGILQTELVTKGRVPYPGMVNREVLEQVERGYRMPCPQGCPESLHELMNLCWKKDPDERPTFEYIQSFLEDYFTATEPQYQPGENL
# UniProt P51451, sequence (whole entry, looked up): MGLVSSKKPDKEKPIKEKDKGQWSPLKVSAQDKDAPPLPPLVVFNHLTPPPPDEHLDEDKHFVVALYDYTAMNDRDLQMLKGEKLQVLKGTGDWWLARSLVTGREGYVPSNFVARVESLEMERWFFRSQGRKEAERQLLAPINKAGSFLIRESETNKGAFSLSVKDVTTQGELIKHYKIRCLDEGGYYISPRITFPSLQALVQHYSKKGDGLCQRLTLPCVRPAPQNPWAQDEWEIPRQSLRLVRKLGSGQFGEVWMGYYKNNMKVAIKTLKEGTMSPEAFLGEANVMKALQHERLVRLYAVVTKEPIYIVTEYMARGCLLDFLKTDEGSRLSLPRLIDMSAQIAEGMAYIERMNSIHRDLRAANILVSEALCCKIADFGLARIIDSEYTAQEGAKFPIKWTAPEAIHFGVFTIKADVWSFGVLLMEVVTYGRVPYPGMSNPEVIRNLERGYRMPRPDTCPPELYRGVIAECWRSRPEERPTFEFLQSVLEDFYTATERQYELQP
# UniProt P16885, sequence (whole entry, looked up): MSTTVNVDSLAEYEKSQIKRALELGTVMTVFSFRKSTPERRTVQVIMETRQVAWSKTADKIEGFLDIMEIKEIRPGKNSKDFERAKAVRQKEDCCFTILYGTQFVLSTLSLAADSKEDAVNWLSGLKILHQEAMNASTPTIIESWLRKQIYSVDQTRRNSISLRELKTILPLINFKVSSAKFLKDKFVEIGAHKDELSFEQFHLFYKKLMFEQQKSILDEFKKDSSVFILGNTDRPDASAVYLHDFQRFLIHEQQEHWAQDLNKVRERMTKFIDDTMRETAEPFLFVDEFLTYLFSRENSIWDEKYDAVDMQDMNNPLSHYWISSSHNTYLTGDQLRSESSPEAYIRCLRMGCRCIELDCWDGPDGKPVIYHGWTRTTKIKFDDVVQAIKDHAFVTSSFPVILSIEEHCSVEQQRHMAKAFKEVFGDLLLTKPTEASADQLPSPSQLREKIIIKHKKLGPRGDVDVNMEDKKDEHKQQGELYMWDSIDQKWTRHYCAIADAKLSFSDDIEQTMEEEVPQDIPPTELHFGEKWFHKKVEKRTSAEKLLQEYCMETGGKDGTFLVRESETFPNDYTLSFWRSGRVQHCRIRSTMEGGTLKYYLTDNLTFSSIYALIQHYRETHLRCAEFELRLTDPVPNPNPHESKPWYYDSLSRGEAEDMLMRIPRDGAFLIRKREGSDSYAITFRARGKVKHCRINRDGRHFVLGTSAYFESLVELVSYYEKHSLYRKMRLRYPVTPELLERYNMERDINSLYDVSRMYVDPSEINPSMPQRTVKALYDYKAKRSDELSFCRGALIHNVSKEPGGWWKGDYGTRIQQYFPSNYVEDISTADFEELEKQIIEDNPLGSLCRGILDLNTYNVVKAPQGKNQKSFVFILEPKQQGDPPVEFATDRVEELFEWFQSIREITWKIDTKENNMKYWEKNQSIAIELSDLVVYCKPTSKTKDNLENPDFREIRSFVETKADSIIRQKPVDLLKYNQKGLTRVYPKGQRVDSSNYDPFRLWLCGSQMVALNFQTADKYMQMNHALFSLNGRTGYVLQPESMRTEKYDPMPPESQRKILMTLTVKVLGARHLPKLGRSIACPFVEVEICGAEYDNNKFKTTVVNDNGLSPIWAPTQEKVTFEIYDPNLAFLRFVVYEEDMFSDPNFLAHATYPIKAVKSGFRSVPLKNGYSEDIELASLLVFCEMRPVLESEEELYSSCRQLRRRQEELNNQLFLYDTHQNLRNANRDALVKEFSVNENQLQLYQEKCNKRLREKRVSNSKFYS
# UniProt P21553, sequence (whole entry, unmodified, looked up): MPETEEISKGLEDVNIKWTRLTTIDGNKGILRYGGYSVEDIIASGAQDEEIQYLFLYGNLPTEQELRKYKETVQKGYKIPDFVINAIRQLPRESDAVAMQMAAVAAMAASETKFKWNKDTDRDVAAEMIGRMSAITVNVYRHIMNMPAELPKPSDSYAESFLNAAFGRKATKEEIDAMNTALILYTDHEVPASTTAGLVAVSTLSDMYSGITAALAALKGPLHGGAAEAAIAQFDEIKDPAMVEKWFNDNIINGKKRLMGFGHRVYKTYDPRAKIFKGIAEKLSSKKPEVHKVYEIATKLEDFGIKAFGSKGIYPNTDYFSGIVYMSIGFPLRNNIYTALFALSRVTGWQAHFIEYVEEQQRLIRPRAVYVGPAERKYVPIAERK
# UniProt P35222, sequence (whole entry, looked up): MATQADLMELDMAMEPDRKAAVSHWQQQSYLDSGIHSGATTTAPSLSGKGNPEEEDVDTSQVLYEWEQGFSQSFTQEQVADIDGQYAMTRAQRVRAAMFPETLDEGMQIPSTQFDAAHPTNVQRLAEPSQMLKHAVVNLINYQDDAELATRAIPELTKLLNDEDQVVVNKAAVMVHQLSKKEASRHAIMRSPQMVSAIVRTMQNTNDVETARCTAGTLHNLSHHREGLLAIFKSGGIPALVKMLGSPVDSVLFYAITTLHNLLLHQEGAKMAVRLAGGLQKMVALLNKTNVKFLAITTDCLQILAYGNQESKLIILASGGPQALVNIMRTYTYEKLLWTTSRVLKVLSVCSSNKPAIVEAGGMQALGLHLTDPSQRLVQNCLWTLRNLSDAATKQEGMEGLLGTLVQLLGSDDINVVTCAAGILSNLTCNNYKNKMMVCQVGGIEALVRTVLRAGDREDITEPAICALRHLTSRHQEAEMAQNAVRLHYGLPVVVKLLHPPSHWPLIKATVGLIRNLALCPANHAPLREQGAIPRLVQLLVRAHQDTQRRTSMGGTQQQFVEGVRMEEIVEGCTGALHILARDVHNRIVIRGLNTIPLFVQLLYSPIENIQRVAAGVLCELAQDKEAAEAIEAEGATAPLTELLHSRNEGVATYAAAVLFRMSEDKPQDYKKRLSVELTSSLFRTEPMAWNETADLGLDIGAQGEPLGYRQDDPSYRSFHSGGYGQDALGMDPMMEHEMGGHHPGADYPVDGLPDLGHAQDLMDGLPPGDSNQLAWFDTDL
# UniProt P35218, sequence (whole entry, looked up): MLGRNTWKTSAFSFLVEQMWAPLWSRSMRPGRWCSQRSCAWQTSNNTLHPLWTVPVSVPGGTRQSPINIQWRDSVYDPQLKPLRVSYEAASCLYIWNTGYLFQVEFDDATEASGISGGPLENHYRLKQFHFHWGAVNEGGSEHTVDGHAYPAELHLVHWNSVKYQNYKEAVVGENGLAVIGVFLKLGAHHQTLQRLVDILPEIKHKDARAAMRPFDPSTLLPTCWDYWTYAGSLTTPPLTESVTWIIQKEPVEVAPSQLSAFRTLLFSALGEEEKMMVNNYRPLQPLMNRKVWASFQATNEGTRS
# UniProt O96013, sequence (whole entry, looked up): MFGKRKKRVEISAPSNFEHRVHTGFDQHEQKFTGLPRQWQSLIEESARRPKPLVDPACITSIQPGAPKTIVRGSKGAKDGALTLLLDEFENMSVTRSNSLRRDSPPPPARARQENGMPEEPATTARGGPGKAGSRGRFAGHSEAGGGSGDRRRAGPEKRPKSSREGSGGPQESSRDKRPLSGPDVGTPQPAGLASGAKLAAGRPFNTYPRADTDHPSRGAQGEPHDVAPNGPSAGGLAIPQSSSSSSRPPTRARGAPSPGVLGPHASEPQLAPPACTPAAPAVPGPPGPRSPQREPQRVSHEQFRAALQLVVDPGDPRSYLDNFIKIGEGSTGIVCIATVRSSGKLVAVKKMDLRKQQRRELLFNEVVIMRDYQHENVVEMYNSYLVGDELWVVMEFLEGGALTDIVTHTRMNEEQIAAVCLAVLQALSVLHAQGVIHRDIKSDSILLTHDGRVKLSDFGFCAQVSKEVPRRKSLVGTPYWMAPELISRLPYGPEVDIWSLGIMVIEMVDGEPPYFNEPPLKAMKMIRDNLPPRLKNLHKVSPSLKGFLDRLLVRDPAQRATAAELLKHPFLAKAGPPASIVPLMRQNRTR
Structure (SMILES),target,test,system,setting,Kd [µM]
CC(C)S[C@@H]1O[C@H](CO)[C@H](O)[C@H](O)[C@H]1O,"lacI (Escherichia coli, UniProt P03023)","binding, fluorescence titration",,no operator DNA,1.5 ± 0.2
CC(=O)N[C@H]1[C@@H](O[C@H](C)[C@H](NC(=O)CNC(=O)[C@H](C)NC(=O)CNC(=O)[C@H](C)NC(=O)CNC(=O)[C@H](C)NC(=O)CNC(=O)[C@@H](NC(=O)[C@H](C)NC(=O)CN)[C@@H](C)O[C@H]2O[C@H](CO)[C@H](O)[C@H](O)[C@H]2NC(C)=O)C(=O)N[C@H](C(=O)N2CCC[C@H]2C(=O)NCC(=O)N2CCC[C@H]2C(=O)NCC(N)=O)[C@@H](C)O)O[C@H](CO)[C@H](O)[C@@H]1O,"Polypeptide N-acetylgalactosaminyltransferase 4 (GALNT4, Homo sapiens, UniProt Q8N4A0, Q285A/T283S)",surface plasmon resonance,,,435
CSCC[C@H](NC(=O)[C@H](CC(=O)O)NC(=O)c1ccc2c(c1)C(=O)OC21c2ccc(N(C)C)cc2Oc2cc(N(C)C)ccc21)C(=O)N[C@@H](CO)C(=O)N[C@@H](CCCCN)C(=O)N[C@@H](CC(=O)O)C(=O)N[C@@H](CCC(=O)O)C(=O)N[C@@H](CO)C(=O)N[C@H](C(=O)N[C@@H](CC(=O)O)C(=O)N[C@@H](Cc1ccc(OP(=O)(O)O)cc1)C(=O)N[C@H](C(=O)N1CCC[C@H]1C(=O)N[C@@H](CCSC)C(=O)N[C@@H](CC(C)C)C(=O)N[C@@H](CC(=O)O)C(=O)N[C@@H](CCSC)C(=O)N[C@@H](CCCCN)C(=O)N[C@@H](CC(=O)O)C(=O)O)C(C)C)C(C)C,"1-phosphatidylinositol 4,5-bisphosphate phosphodiesterase gamma-2, SH2 domain (PLCG2, Homo sapiens, UniProt P16885)",binding,,,0.425
NS(=O)(=O)c1ccccc1,"CA5A (Homo sapiens, UniProt P35218)",thermal shift,,"pH 7.0, 25 °C",2.86
CNC(=O)c1cccn(Cc2ccc3c(c2)OC(F)(F)O3)c1=O,"Fascin (FSCN1, Homo sapiens, UniProt Q16658)",binding,,,> 100
COc1cc2c3c(n(CCCNCCO)c(=O)c2cc1OC)-c1cc2c(cc1C3=O)OCO2,MYC G-quadruplex DNA,"binding, fluorescence",,"pH 7.0, 20 °C, added: K+ 100 mM",0.011
C[C@H](NC(=O)[C@H](C)NC(=O)[C@@H](N)Cc1ccc(O)cc1)C(=O)O,PRT1,ITC,,"pH 7.5, 25 °C",23.3 ± 0.958
C[C@@H](O)[C@H](NC(=O)[C@@H](N)CCCCN)C(=O)N[C@@H](CC(=O)O)C(=O)N[C@@H](CC(N)=O)C(=O)N[C@@H](CC(N)=O)C(=O)N[C@@H](CC(N)=O)C(=O)N[C@@H](CO)C(=O)N[C@@H](CC(N)=O)C(=O)N[C@@H](Cc1ccccc1)C(=O)O,"HLA class I histocompatibility antigen, A alpha chain, allele A*01:01 (Homo sapiens, UniProt P04439)","binding, fluorescence competition",,"2 days, HLA-A*0101, added: 6-FAM-labelled peptide tracer",8.2
Oc1ccc(/C=C/c2cc(O)cc(O)c2)cc1,"O-methyltransferase (Sorghum bicolor, UniProt A0A1B6PFV1, W279A)",isothermal titration calorimetry,,APO,33.1
COc1ccc(NC(=O)C(C)N2CC=C(c3ccnc4[nH]ccc34)CC2)cc1OC (stereo not shown),"WD repeat-containing protein 55 (WDR55, Homo sapiens, UniProt Q9H6Y2)","binding, SPR",,20 °C,15
CC(=O)CCCNC(=O)CCNC(=O)[C@H](O)C(C)(C)COP(=O)(O)OP(=O)(O)OC[C@H]1O[C@@H](n2cnc3c(N)ncnc32)[C@H](O)[C@@H]1OP(=O)(O)O,"gltA, with oxaloacetate (Thermoplasma acidophilum, UniProt P21553, W349Y)",fluorescence titration,,"20 °C, added: oxaloacetate",1.86 ± 0.09
C[C@H](NC(=O)[C@@H](NC(=O)[C@H](CO)NC(=O)[C@H](Cc1c[nH]cn1)NC(=O)[C@@H]1CCCN1C(=O)[C@H](CC(=O)O)NC(=O)[C@H](CCC(N)=O)NC(=O)[C@H](Cc1ccc(OP(=O)(O)O)cc1)NC(=O)[C@H](Cc1c[nH]cn1)NC(=O)[C@@H]1CCCN1C(=O)[C@H](CC(=O)O)NC(=O)[C@H](CCCNC(=N)N)NC(=O)[C@H](CO)NC(=O)[C@@H]1CCCN1C(=O)[C@H](C)NC(=O)[C@@H]1CCCN1C(=O)[C@H](CC(N)=O)NC(=O)c1ccc2c(c1)C(=O)OC21c2ccc(N(C)C)cc2Oc2cc(N(C)C)ccc21)[C@@H](C)O)C(=O)N[C@@H](CC(=O)O)C(=O)O,YES1 SH2 domain,binding,,,0.378
CC[C@H](CO)Nc1nc(NCc2ccc(-c3ccccn3)cc2)c2ncn(C(C)C)c2n1,"PAK4 (Homo sapiens, UniProt O96013)","binding, competition affinity chromatography",SH-SY5Y cell extract,,10.6
CC(C)C[C@H](NC(=O)[C@H](Cc1ccc(OP(=O)(O)O)cc1)NC(=O)[C@H](CCC(=O)O)NC(=O)[C@@H]1CCCN1C(=O)[C@H](CC(N)=O)NC(=O)CNC(=O)[C@@H](NC(=O)[C@H](C)NC(=O)[C@@H](NC(=O)[C@H](CO)NC(=O)[C@H](Cc1c[nH]cn1)NC(=O)c1ccc2c(c1)C(=O)OC21c2ccc(N(C)C)cc2Oc2cc(N(C)C)ccc21)[C@@H](C)O)C(C)C)C(=O)N[C@@H](CC(N)=O)C(=O)N[C@H](C(=O)N[C@H](C(=O)N[C@@H](CCC(N)=O)C(=O)N1CCC[C@H]1C(=O)N[C@H](C(=O)N[C@@H](CC(=O)O)C(=O)O)[C@@H](C)O)C(C)C)[C@@H](C)O,"Growth factor receptor-bound protein 2, SH2 domain (GRB2, Homo sapiens, UniProt P62993)",binding,,,0.422
C[C@H](NC(=O)[C@@H](N)Cc1ccc(O)cc1)C(=O)N[C@@H](Cc1ccccc1)C(=O)O,PRT1,ITC,,"pH 7.5, 25 °C",3.43 ± 0.218
CC[C@H](C)[C@H](NC(=O)[C@H](Cc1ccc(OP(=O)(O)O)cc1)NC(=O)[C@H](CCC(=O)O)NC(=O)[C@H](Cc1c[nH]cn1)NC(=O)CNC(=O)[C@H](CC(=O)O)NC(=O)[C@H](CO)NC(=O)[C@H](CO)NC(=O)[C@@H](NC(=O)[C@H](CO)NC(=O)[C@H](CCC(=O)O)NC(=O)c1ccc2c(c1)C(=O)OC21c2ccc(N(C)C)cc2Oc2cc(N(C)C)ccc21)C(C)C)C(=O)N[C@@H](Cc1ccc(O)cc1)C(=O)N[C@H](C(=O)N[C@@H](CC(=O)O)C(=O)N1CCC[C@H]1C(=O)N[C@@H](CCSC)C(=O)N[C@@H](CCC(N)=O)C(=O)N[C@@H](CC(=O)O)C(=O)O)C(C)C,"Tyrosine-protein kinase Blk, SH2 domain (BLK, Homo sapiens, UniProt P51451)",binding,,,0.573
CC[C@H](C)[C@@H]1NC(=O)[C@@](C)(NC(=O)[C@H](CCCNC(=N)N)NC(=O)[C@H](CC(C)C)NC(=O)[C@@H](NC(=O)[C@H](CCC(N)=O)NC(=O)[C@H](CC(C)C)NC(=O)[C@H](CCC(N)=O)NC(=O)[C@@H]2CCCN2C(=O)[C@H](CCCNC(=N)N)NC(=O)[C@H](CCCNC(=N)N)NC(=O)[C@H](CCCNC(=N)N)NC(=O)[C@H](CCC(N)=O)NC(=O)[C@H](CCCNC(=N)N)NC(=O)[C@H](CCCNC(=N)N)NC(=O)[C@H](CCCCN)NC(=O)[C@H](CCCCN)NC(=O)[C@H](CCCNC(=N)N)NC(=O)CNC(C)=O)[C@@H](C)O)CCCC=CCCC[C@@](C)(C(=O)N[C@@H](Cc2ccc3ccccc3c2)C(=O)NCCC(=O)NCCC(N)=O)NC(=O)[C@H](CCCNC(=N)N)NC(=O)[C@H](CCC(N)=O)NC1=O,"Catenin beta-1 (CTNNB1, Homo sapiens, UniProt P35222)","peptide binding, AlphaScreen",,,0.025
CSCC[C@H](NC(=O)[C@H](CC(C)C)NC(=O)[C@H](C)NC(=O)[C@H](CCCNC(=N)N)NC(=O)[C@H](Cc1ccc(OP(=O)(O)O)cc1)NC(=O)[C@H](Cc1ccccc1)NC(=O)[C@H](CC(N)=O)NC(=O)[C@H](CO)NC(=O)[C@H](CC(=O)O)NC(=O)[C@@H](NC(=O)[C@@H]1CCCN1C(=O)[C@H](CO)NC(=O)[C@@H]1CCCN1C(=O)[C@H](CC(C)C)NC(=O)c1ccc2c(c1)C(=O)OC21c2ccc(N(C)C)cc2Oc2cc(N(C)C)ccc21)[C@@H](C)O)C(=O)N[C@@H](CC(=O)O)C(=O)N[C@@H](CCC(=O)O)C(=O)N[C@@H](CCC(=O)O)C(=O)N[C@@H](CC(=O)O)C(=O)O,YES1 SH2 domain,binding,,,0.724
CO[C@@H]1[C@@H](OC(N)=O)[C@@H](O)[C@H](Oc2ccc3c(O)c(NC(=O)c4ccc(O)c(CC=C(C)C)c4)c(=O)oc3c2C)OC1(C)C,"Multidrug resistance operon repressor (mexR, Pseudomonas aeruginosa, UniProt P52003, E48A/Q49A)",,,,1530
